Experimental data collected from several papers.
Lines come from different studies, so protocols differ. ± gives the spread as reported.
Genome polyprotein protease: Genome polyprotein, protease (Coxsackievirus B3, UniProt P03313)
Chain of UniProt P03313 (whole entry, looked up): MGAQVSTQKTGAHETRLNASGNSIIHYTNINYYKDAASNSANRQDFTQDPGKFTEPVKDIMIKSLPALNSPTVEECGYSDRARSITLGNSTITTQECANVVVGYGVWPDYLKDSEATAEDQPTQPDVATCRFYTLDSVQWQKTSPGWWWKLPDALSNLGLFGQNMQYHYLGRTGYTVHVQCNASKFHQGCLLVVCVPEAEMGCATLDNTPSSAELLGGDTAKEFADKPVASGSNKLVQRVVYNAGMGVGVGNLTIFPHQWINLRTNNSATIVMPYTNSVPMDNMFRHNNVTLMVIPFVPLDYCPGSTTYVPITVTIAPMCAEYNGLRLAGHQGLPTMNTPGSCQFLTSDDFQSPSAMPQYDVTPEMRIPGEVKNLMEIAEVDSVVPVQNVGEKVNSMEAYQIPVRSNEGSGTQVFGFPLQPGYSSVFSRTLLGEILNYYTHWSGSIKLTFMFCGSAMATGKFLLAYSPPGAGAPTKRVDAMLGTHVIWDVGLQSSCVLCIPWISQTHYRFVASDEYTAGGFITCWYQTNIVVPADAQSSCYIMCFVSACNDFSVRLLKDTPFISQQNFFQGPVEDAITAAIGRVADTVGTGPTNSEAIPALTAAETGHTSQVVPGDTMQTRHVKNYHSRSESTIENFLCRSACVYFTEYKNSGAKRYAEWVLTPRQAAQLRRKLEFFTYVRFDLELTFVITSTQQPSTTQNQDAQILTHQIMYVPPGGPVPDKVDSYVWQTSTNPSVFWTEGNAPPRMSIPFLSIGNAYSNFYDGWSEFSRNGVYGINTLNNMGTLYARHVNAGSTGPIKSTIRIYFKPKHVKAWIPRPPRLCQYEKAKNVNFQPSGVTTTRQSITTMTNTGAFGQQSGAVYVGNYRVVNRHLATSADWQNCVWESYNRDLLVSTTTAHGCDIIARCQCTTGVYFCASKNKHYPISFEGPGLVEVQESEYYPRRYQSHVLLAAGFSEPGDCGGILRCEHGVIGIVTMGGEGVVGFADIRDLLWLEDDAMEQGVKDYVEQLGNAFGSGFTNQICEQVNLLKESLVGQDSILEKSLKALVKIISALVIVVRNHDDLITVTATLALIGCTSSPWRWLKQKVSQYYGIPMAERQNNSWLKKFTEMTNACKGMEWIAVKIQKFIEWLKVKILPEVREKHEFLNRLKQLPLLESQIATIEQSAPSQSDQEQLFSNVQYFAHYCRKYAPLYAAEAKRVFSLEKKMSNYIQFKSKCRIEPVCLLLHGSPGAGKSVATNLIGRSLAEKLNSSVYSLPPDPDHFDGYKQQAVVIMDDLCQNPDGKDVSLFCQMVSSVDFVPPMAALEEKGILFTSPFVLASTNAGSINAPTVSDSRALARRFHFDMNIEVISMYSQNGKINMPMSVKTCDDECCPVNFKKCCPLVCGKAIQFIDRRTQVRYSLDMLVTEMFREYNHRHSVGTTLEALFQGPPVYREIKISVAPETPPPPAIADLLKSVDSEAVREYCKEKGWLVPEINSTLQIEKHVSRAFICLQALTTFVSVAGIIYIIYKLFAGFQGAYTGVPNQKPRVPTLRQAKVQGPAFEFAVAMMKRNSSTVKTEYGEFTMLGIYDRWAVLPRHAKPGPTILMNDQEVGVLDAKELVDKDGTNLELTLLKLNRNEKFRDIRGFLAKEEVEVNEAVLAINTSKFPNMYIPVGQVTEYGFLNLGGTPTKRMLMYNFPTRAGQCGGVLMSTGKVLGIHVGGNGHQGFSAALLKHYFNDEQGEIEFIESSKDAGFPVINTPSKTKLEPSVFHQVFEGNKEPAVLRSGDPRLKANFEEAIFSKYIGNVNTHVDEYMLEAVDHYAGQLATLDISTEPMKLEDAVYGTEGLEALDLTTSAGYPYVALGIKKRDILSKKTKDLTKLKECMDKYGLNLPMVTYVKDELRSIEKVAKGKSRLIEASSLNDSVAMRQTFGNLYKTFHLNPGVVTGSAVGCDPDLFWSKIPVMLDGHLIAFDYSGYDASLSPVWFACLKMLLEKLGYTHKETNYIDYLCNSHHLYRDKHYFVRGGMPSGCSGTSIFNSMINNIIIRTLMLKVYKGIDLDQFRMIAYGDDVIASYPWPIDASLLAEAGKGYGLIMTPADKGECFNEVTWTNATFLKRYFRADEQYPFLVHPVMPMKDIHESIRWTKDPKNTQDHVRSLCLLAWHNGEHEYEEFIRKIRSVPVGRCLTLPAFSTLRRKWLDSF
Dihydrolipoyl dehydrogenase: Dihydrolipoyl dehydrogenase (Mycobacterium tuberculosis, UniProt P9WHH9)
Chain of UniProt P9WHH9 (whole entry, looked up): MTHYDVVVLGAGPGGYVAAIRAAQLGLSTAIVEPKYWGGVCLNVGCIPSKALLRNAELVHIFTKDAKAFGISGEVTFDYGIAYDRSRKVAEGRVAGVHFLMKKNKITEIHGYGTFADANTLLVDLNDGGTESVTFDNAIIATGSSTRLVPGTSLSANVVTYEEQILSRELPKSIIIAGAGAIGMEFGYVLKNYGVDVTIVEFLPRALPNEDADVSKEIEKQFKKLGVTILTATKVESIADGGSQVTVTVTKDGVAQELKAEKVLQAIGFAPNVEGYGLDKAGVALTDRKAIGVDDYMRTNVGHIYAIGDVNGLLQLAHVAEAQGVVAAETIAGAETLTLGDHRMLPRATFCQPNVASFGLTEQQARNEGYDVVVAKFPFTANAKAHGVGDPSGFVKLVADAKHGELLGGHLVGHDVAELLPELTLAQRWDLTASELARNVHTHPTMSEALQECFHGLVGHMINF
DNA ligase: DNA ligase (Enterobacteria phage T4, UniProt P00970)
Chain of UniProt P00970 (whole entry, looked up): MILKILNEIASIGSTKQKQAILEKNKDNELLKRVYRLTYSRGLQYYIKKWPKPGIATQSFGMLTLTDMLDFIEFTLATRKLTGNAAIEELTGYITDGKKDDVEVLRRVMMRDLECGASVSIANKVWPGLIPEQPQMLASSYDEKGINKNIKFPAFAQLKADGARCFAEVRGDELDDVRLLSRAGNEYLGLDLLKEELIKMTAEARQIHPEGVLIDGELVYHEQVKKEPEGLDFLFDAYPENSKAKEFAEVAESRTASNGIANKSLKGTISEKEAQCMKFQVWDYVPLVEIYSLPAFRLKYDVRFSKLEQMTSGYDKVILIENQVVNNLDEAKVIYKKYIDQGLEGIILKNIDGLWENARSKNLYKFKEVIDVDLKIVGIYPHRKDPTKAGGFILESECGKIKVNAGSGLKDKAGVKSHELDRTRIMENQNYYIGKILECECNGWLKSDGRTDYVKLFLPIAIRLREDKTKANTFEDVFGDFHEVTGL
rep main protease: Replicase polyprotein 1ab, main protease (rep, Human coronavirus HKU1, UniProt P0C6X2)
Adenosylmethionine-8-amino-7-oxononanoate aminotransferase: Adenosylmethionine-8-amino-7-oxononanoate aminotransferase (Mycobacterium tuberculosis, UniProt P9WQ81)
Chain of UniProt P9WQ81 (whole entry, looked up): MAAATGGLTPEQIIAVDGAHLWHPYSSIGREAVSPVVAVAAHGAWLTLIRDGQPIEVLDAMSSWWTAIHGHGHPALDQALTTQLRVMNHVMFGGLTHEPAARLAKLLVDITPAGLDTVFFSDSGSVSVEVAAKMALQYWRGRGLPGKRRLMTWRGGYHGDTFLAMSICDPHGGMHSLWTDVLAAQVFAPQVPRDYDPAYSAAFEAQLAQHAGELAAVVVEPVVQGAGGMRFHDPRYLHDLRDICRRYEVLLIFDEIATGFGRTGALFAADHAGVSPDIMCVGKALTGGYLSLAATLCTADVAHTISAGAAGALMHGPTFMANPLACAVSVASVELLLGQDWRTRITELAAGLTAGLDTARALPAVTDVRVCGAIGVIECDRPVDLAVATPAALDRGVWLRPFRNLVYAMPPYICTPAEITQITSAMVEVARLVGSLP
gyrB with GyrA: DNA gyrase subunit B, with GyrA (gyrB, Mycobacterium tuberculosis, UniProt P9WG45)
Chain of UniProt Q01959 (whole entry, unmodified, looked up): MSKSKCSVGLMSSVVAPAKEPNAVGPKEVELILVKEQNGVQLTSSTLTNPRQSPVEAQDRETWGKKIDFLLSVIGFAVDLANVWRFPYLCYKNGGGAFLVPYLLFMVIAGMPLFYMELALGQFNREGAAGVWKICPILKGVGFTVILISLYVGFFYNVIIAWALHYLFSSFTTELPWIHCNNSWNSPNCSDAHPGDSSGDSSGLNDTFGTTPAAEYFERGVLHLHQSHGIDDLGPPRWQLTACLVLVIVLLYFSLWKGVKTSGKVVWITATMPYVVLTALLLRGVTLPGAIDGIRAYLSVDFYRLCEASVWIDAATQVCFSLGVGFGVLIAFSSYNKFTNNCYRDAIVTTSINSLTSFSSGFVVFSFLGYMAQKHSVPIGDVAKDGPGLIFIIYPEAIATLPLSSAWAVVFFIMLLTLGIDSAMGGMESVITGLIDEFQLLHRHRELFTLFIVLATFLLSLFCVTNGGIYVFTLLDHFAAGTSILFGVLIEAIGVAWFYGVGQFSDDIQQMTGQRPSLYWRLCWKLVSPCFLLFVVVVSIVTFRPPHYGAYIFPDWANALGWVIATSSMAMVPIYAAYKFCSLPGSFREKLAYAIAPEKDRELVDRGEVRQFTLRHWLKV
Chain of UniProt P9WG45 (whole entry, looked up): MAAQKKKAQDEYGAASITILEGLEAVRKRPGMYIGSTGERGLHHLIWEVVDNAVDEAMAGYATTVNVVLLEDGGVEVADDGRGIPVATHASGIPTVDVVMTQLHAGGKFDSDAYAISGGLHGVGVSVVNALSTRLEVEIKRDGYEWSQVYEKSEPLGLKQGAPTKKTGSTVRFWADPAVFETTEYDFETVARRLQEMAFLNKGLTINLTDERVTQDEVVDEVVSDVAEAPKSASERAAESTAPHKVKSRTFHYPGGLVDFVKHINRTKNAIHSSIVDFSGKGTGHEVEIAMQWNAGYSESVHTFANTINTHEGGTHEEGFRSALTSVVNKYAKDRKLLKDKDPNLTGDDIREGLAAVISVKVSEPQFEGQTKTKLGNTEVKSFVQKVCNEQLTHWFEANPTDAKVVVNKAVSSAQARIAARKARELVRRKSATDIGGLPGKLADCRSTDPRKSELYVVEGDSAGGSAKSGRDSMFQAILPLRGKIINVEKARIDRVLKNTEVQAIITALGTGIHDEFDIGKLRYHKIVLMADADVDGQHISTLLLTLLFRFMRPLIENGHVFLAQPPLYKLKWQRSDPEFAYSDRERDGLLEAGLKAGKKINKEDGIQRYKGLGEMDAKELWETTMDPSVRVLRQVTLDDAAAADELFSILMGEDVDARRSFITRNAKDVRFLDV

The IC50 of `CCOCC1C(c2ccc(Cl)c(Cl)c2)CC2CCC1N2C` (centres unmarked) is reported as 0.204 µM (Sodium-dependent dopamine transporter (SLC6A3, Homo sapiens, UniProt Q01959, S422A); transporter uptake, inhibitor, radiometric).
`CC[C@H](C)[C@H](NC(=O)[C@H](CO)NC(=O)[C@H](Cc1ccc(O)cc1)NC(=O)[C@H](CC(=O)O)NC(=O)[C@H](CO)NC(=O)[C@@H](NC(=O)[C@H](Cc1ccccc1)NC(=O)[C@@H](NC(=O)CNC(=O)[C@@H]1CCCN1C(=O)[C@H](C)NC(=O)[C@@H](N)Cc1ccc(O)cc1)[C@@H](C)O)[C@@H](C)CC)C(=O)N[C@@H](C)C(=O)N[C@@H](CCSC)C(=O)N[C@@H](CC(=O)O)C(=O)N[C@@H](CCCCN)C(=O)N[C@H](C(=O)N[C@@H](CCCNC(=N)N)C(=O)N[C@@H](CCC(N)=O)C(=O)N[C@@H](CCC(N)=O)C(=O)N[C@@H](CC(=O)O)C(=O)N[C@@H](Cc1ccccc1)C(=O)N[C@H](C(=O)N[C@@H](CC(N)=O)C(=O)N[C@@H](Cc1c[nH]c2ccccc12)C(=O)N[C@@H](CC(C)C)C(=O)N[C@@H](CC(C)C)C(=O)N[C@@H](C)C(=O)N[C@@H](CCC(N)=O)C(=O)N[C@@H](CCCCN)C(=O)NCC(=O)N[C@@H](CCCCN)C(=O)N[C@@H](CCCCN)C(=O)N[C@@H](CC(N)=O)C(=O)N[C@@H](CC(=O)O)C(=O)N[C@@H](Cc1c[nH]c2ccccc12)C(=O)N[C@@H](CCCCN)C(=O)N[C@@H](Cc1c[nH]cn1)C(=O)N[C@@H](CC(N)=O)C(=O)N[C@@H](CC(C)C)C(=O)N[C@H](C(=O)N[C@@H](CCC(N)=O)C(=O)O)[C@@H](C)O)C(C)C)[C@@H](C)CC` gave an IC50 of 0.00794 µM (Gastric inhibitory polypeptide receptor (Mus musculus, UniProt Q0P543); 4 h, 4 °C).
`C=CCC(NC(=O)C1CN(C(=O)C(CC(=C)C)NC(=O)C=C)CC1c1cccc(C(F)(F)F)c1)C(=O)NC` (centres unmarked) has an IC50 of > 100 µM (Replicase polyprotein 1ab, main protease (Human coronavirus OC43, UniProt P0C6X6)).
`COc1cc(C[S+]([O-])c2nc3cccnc3s2)oc(=O)c1` (centres unmarked) has an IC50 of > 50 µM (Genome polyprotein protease; enzyme activity, inhibitor).
The Vd of `C[C@@](O)(C(F)F)[C@H](NC(=O)c1ccc(C#CC#CC2CC2)cc1)C(=O)NO` is reported as 3.4 L/kg (dog, plasma; intravenous, 30 mg/kg).
With `COc1ccc(NC(=O)CN(C)S(=O)(=O)c2cc(C)cc3cn[nH]c23)cc1Cl` the IC50 was 0.035 µM (Dihydrolipoyl dehydrogenase; enzyme activity, inhibitor; together with: 50 nM enzyme).
The IC50 of `CC1(C)OC2OC(C(CCO)NCCCNC(CCO)C3OC4OC(C)(C)OC4C3OCc3ccccc3)C(OCc3ccccc3)C2O1` (centres unmarked) is reported as 455 µM (DNA ligase; enzyme activity, inhibitor, radiometric).
With `CC(C)C[C@@H]1NC(=O)CN(C)C(=O)[C@H](Cc2c[nH]c3ccccc23)NC(=O)[C@H](CCC(=O)O)NC(=O)[C@H](Cc2ccccc2)N(C)C(=O)[C@H](Cc2ccccc2)NC(=O)CSC[C@@H](C(N)=O)NC(=O)[C@H](CCCCN)NC(=O)[C@H](C(C)C)NC(=O)[C@H](Cc2ccc(O)cc2)NC(=O)[C@H](Cc2ccc(O)cc2)NC(=O)[C@H](C(C)C)NC(=O)[C@H](Cc2ccccc2)N(C)C(=O)[C@H](CCCNC(=N)N)NC1=O` the IC50 was 0.02 µM (AT-rich interactive domain-containing protein 1B (ARID1B, Homo sapiens, UniProt Q8NFD5); binding, TR-FRET; 1% DMSO, together with: tracer 6-cy5 10 nM).
The IC50 of `COc1cc(N2CCN(C)CC2)ccc1Nc1ncc2c(n1)N(C1CCC1)C(=O)N(c1c(C)cccc1C)C2` is reported as 0.0019 µM (Serine/threonine-protein kinase SIK1 (SIK1, Homo sapiens, UniProt P57059); inhibitor).
`COC(=O)C1C(c2ccc(C)cc2)CC2CCC1N2CC#CC[18F]` (centres unmarked) gave an IC50 of 0.0201 µM (Sodium-dependent dopamine transporter (SLC6A3, Homo sapiens, UniProt Q01959); transporter uptake, inhibitor, radiometric).
For `COc1ccc(NC(=O)CN(C)S(=O)(=O)c2cc(C)cnc2N)cc1Cl`, the IC50 was 0.104 µM (Dihydrolipoyl dehydrogenase; enzyme activity, inhibitor).
For `CCOC(=O)CC(NC(=O)Nc1ccc(NC(=O)NC(CC(=O)OCC)C2OC3OC(C)(C)OC3C2OCc2ccccc2)cc1)C1OC2OC(C)(C)OC2C1OCc1ccccc1` (centres unmarked), the IC50 was 55 µM (DNA ligase; enzyme activity, inhibitor, radiometric).
For `CN[C@](C)(C[18F])C(=O)O`, the tracer uptake was 13 %ID/g (DU-145 tumour model; host not given, kidney; 30 min, tumour-bearing).
`CN1C(=O)[C@H](Cc2ccc(O)cc2)NC(=O)CNC(=O)[C@H](Cc2ccc(O)cc2)NC(=O)[C@H](CCC(=O)O)NC(=O)[C@H](Cc2ccc(O)cc2)N(C)C(=O)[C@H](Cc2ccc(O)cc2)N(C)C(=O)[C@H](CCC(N)=O)NC(=O)[C@H](Cc2c[nH]c3ccccc23)NC(=O)[C@H](Cc2ccc(O)cc2)NC(=O)[C@@H](Cc2ccc(O)cc2)NC(=O)CSC[C@@H](C(N)=O)NC(=O)[C@H](CCCCN)NC(=O)[C@@H]1Cc1ccc(O)cc1` has an AC50 of 1200 nM (cofactor-independent phosphoglycerate mutase (Metamycoplasma orale, UniProt A0A448ZXM1, W431C); biochemical; Mycoplasma orale).
`C=CC(=O)NC(CC(=C)C)C(=O)N1CC(C(=O)NC(Cc2ccccc2)C(=O)NC)C(c2cccc(C(F)(F)F)c2)C1` (centres unmarked) gave an IC50 of 19.5 µM (rep main protease).
The IC50 of `CC(=O)Nc1ccc(/C=N/NC(=S)Nc2cccc3cccnc23)cc1` is reported as 272.7 ± 1.15 µM (Adenosylmethionine-8-amino-7-oxononanoate aminotransferase; inhibitor, biochemical).
For `C=CC(=O)NC(CC(=C)C)C(=O)N1CC(C(=O)NC(Cc2ccco2)C(=O)NC)C(c2cccc(C(F)(F)F)c2)C1` (centres unmarked), the IC50 was > 100 µM (rep main protease).
The AC50 of `CC(C)[C@@H]1NC(=O)[C@H](CCC(N)=O)NC(=O)[C@@H](Cc2ccc(O)cc2)NC(=O)CSC[C@@H](C(N)=O)NC(=O)[C@H](CC(=O)O)NC(=O)[C@H](CCC(=O)O)NC(=O)[C@H](Cc2c[nH]c3ccccc23)NC(=O)[C@@H]2CCCN2C(=O)[C@H](CO)N(C)C(=O)[C@H](C)NC(=O)[C@H](Cc2c[nH]c3ccccc23)NC(=O)[C@H](Cc2c[nH]c3ccccc23)NC(=O)[C@H](C(C)C)NC(=O)[C@H]([C@@H](C)O)NC1=O` is reported as 38 nM (2,3-bisphosphoglycerate-independent phosphoglycerate mutase (gpmI, Staphylococcus aureus, UniProt Q6GIL5); enzyme activity).
For `Cc1cnc(N)c(S(=O)(=O)N(C)CC(=O)Nc2ccc(C#N)c(Cl)c2)c1`, the IC50 was 1.7 µM (Dihydrolipoyl dehydrogenase; enzyme activity, inhibitor; together with: 50 nM enzyme).
The IC50 of `COC1OC2COC(c3ccccc3)OC2C(NC(=S)SCc2ccccc2)C1O` (centres unmarked) is reported as 100 µM (Adenosylmethionine-8-amino-7-oxononanoate aminotransferase; inhibitor, biochemical).
`CCC(=O)N(C)c1ccc(Cl)c(Cl)c1` gave a revertants of 0 revertants/plate (Escherichia coli; Ames test; WP2 uvrA; 5.00 mg/plate, with rat liver S9).
The IC50 of `CCn1c(NCc2ccc(N3N=C(c4ccccc4)CC3c3ccccc3)cc2)nc2ccccc21` (centres unmarked) is reported as 6.5 µM (Genome polyprotein protease; enzyme activity, inhibitor).
For `CC1C(=NNC(=O)c2ccncc2)C(C)C(c2ccc(Cl)cc2)OC1c1ccc(Cl)cc1` (centres unmarked), the IC50 was 5.16 µM (gyrB with GyrA; ATPase activity, inhibitor).
`Cc1cccc(C)c1N1Cc2cnc(Nc3ccc(N4CCN(C)CC4)cc3)nc2N(C23CC4CC(CC(C4)C2)C3)C1=O` gave an IC50 of > 0.02 µM (Serine/threonine-protein kinase SIK3 (SIK3, Homo sapiens, UniProt Q9Y2K2); enzyme activity, inhibitor).
`CC1C(=NOCc2cc(-c3ccc(Cl)cc3)no2)C(C)C(c2ccc(Br)cc2)OC1c1ccc(Br)cc1` (centres unmarked) has an IC50 of 10.5 µM (gyrB with GyrA; ATPase activity, inhibitor).
The IC50 of `CC1(C)OC2OC(C(CCO)NC(=O)Nc3cccc(NC(=O)NC(CCO)C4OC5OC(C)(C)OC5C4OCc4ccccc4)c3)C(OCc3ccccc3)C2O1` (centres unmarked) is reported as 462 µM (DNA ligase; enzyme activity, inhibitor, radiometric).

Some of these lines once more:
With `COc1ccc(NC(=O)CN(C)S(=O)(=O)c2cc(C)cc3cn[nH]c23)cc1Cl` the IC50 was 0.035 µM (Dihydrolipoyl dehydrogenase; enzyme activity, inhibitor; together with: 50 nM enzyme).
The IC50 of `CC1(C)OC2OC(C(CCO)NCCCNC(CCO)C3OC4OC(C)(C)OC4C3OCc3ccccc3)C(OCc3ccccc3)C2O1` (centres unmarked) is reported as 455 µM (DNA ligase; enzyme activity, inhibitor, radiometric).
With `CC(C)C[C@@H]1NC(=O)CN(C)C(=O)[C@H](Cc2c[nH]c3ccccc23)NC(=O)[C@H](CCC(=O)O)NC(=O)[C@H](Cc2ccccc2)N(C)C(=O)[C@H](Cc2ccccc2)NC(=O)CSC[C@@H](C(N)=O)NC(=O)[C@H](CCCCN)NC(=O)[C@H](C(C)C)NC(=O)[C@H](Cc2ccc(O)cc2)NC(=O)[C@H](Cc2ccc(O)cc2)NC(=O)[C@H](C(C)C)NC(=O)[C@H](Cc2ccccc2)N(C)C(=O)[C@H](CCCNC(=N)N)NC1=O` the IC50 was 0.02 µM (AT-rich interactive domain-containing protein 1B (ARID1B, Homo sapiens, UniProt Q8NFD5); binding, TR-FRET; 1% DMSO, together with: tracer 6-cy5 10 nM).
